Assay results of several laboratories.
Numbered parts are unrelated; each lists some results of a single study. Positions count from the first letter of the parent shown.

Block 1 — method: protein-binding microarray; form: double-stranded DNA, one strand shown; medium: in vitro; tested at: not given; reading: higher = stronger binding; quantity: E-score
Target: Transcription factor SOX-2, HMG box (SOX2, Homo sapiens, UniProt P48431, residues 19-118)
Sequence of UniProt P48431 (19-118, looked up): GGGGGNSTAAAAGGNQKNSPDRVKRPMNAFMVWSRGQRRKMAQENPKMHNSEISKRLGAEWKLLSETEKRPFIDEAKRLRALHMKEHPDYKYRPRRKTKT
Setting: k-mer, scored over probes, only values ≥0.25
TATTGAA: 0.399
ACTATTG: 0.301
CGAACAA: 0.285
TAATTGA: 0.367
AACAATT: 0.469
ATAGTCC: 0.312
CAATCGA: 0.287
ATAATTA: 0.419

Block 2 — target: CCNB1, cyclin fold, Cln2 fusion (human); method: yeast growth competition, sequencing; medium: yeast; setting: strong parent motif; reference: not given; reading: higher = stronger binding; quantity: normalised enrichment score
Starting sequence: viral docking peptide; KGVKRKLFAEDSS; partner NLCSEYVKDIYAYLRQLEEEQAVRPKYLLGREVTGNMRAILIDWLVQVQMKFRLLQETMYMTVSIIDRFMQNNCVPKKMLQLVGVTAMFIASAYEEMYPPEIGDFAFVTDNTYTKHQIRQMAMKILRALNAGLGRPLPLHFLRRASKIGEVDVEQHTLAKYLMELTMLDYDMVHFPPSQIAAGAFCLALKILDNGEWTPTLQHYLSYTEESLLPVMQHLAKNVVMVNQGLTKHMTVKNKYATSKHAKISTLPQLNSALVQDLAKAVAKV
KGTKRKLFAEDSS [V3T]: 0.595
KGCKRKLFAEDSS [V3C]: 1.08
KGVKRTLFAEDSS [K6T]: 1.24
KGVKRKLSAEDSS [F8S]: -0.159
KGVLRKLFAEDSS [K4L]: 0.72
KGVGRKLFAEDSS [K4G]: 0.65

Block 3 — observed: peptide-MHC binding; form: peptide; tested at: concentration not given; quantity: binding
Target: HLA class I histocompatibility antigen, A alpha chain, allele A*25:01 (Homo sapiens, UniProt P04439)
FHRKKTDAL: inactive
MVAKYDLLV: inactive
YRATYSMAL: inactive
LLFRMILNY: inactive
LAYLAGWII: inactive
LLDLEGHIL: inactive

Block 4 — target: UBE2D3 UBC core domain (UniProt P61077); method: yeast two-hybrid; medium: yeast; setting: mostly zero background; reference: not given; reading: higher = stronger interaction; quantity: lacZ reporter activity
B1: TRIM32 RING domain (UniProt Q13049); chain NLDALREVLECPICMESFTEEQLRPKLLHCGHTICRQCLEKLLASSINGVRCPFCSKITRITSLTQ
B2: RNF7 RING domain (UniProt Q9UBF6); chain AICRVQVMDACLRCQAENKQEDCVVVWGECNHSFHNCCMSLWVKQNNRCPLCQQDWVVQRIGK
B3: RNF130 RING domain (UniProt Q86XS8); chain DKETDPDFDHCAVCIESYKQNDVVRILPCKHVFHKSCVDPWLSEHCTCPMCKLNILKALGIV
B4: MDM2 RING domain (UniProt Q00987); chain TQDKEESVESSLPLNAIEPCVICQGRPKNGCIVHGKTGHLMACFTCAKKLKKRNKPCPVCRQPIQMIVLTYFP
B5: MARCHF2 RING domain (UniProt Q9P0N8); chain RLLSTVIRALDTPSDGPFCRICHEGANGECLLSPCGCTGTLGAVHKSCLEKWLSSSNTSYCELCHTEFAVEKRPRPLTEWL
B6: RFPL3 RING domain (UniProt O75679); chain MAALFQEASSCPVCSDYLEKPMSLECGCTVCLKCINSLQKEPHGEDLLCCCCSMVSQRNKIRP
B7: PJA2 RING domain (UniProt O43164); chain DHTAIGQEQCCPICCSEYIKDDIATELPCHHFFHKPCVSIWLQKSGTCPVCRRHFPPAVIEA
B8: RMND5B RING domain (UniProt Q96G75); chain MKCWYHSVFACPILRQQTSDSNPPIKLICGHVISRDALNKLINGGKLKCPYCPMEQNPADGK
B9: TRIM68 RING domain (UniProt Q6AZZ1); chain LVEAIVEEVACPICMTFLREPMSIDCGHSFCHSCLSGLWEIPGESQNWGYTCPLCRAPVQPRNLRP
B10: TRIM28 RING domain (UniProt Q13263); chain GAEALELLEHCGVCRERLRPEREPRLLPCLHSACSACLGPAAPAAANSSGDGGAAGDGTVVDCPVCKQQCFSKDIVE
B11: ARIH1 RING domain (UniProt Q9Y4X5); chain NTRSSAQDMPCQICYLNYPNSYFTGLECGHKFCMQCWSEYLTTKIMEEGMGQTISCPAHGCDILVDDNTVM
Residues (chain): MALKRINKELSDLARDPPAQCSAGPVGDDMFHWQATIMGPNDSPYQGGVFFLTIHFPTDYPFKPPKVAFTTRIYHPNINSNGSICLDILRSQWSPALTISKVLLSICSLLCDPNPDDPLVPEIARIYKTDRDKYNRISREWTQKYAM
B1 (TRIM32 RING domain): 0
SNNDLASLFECPVCFDYVLPPILQCQSGHLVCSNCRPKLTCCPTCRGPLGSIRNLA (SIAH1 RING domain (UniProt Q8IUQ4)): 2010
B2 (RNF7 RING domain): 0
B3 (RNF130 RING domain): 14700
B4 (MDM2 RING domain): 0
B5 (MARCHF2 RING domain): 0
MEEMEEELKCPVCGSFYREPIILPCSHNLCQACARNILVQTPESESPQSHRAAGSGVSDY (TRIM9 RING domain (UniProt Q9C026)): 0
FLSKVEETFQCICCQELVFRPITTVCQHNVCKDCLDRSFRAQVFSCPACRYDLGRSYAMQ (UHRF1 RING domain (UniProt Q96T88)): 0
B6 (RFPL3 RING domain): 0
B7 (PJA2 RING domain): 2670
B8 (RMND5B RING domain): 10700
B9 (TRIM68 RING domain): 0
EDVLSKDAGECAICLEELQQGDTIARLPCLCIYHKGCIDEWFEVNRSCPEHPSD (ZNRF2 RING domain (UniProt Q8NHG8)): 15500
B10 (TRIM28 RING domain): 0
B11 (ARIH1 RING domain): 0

Excerpt of the above (block 4):
EDVLSKDAGECAICLEELQQGDTIARLPCLCIYHKGCIDEWFEVNRSCPEHPSD (ZNRF2 RING domain (UniProt Q8NHG8)): 15500
B8 (RMND5B RING domain): 10700
B6 (RFPL3 RING domain): 0
B2 (RNF7 RING domain): 0
FLSKVEETFQCICCQELVFRPITTVCQHNVCKDCLDRSFRAQVFSCPACRYDLGRSYAMQ (UHRF1 RING domain (UniProt Q96T88)): 0
